# Experimental data pooled from the literature.
# A part holds a random share of what one study measured.
# Chain of UniProt Q9UBF8 (whole entry, looked up): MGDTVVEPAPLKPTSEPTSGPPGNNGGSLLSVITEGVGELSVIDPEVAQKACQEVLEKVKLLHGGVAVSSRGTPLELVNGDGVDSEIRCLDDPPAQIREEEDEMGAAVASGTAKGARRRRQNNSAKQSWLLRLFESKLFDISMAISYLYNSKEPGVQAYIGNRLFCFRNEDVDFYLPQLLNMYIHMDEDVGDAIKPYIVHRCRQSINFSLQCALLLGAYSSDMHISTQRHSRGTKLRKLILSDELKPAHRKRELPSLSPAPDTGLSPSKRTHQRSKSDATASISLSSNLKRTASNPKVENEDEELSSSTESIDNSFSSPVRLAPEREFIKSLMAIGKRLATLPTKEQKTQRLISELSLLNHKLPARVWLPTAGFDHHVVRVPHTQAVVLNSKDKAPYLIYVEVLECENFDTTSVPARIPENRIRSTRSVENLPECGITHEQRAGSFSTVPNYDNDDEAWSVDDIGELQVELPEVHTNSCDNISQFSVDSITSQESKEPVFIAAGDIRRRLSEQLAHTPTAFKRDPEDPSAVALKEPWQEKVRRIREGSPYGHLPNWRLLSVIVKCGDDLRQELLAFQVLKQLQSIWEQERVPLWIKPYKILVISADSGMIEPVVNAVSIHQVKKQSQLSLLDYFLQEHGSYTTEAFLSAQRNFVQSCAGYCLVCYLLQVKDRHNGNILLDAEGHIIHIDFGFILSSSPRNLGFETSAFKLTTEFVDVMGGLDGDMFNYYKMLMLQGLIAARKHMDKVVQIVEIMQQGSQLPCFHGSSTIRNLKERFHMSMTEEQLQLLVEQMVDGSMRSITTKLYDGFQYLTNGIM
# Chain of UniProt Q00535 (whole entry, looked up): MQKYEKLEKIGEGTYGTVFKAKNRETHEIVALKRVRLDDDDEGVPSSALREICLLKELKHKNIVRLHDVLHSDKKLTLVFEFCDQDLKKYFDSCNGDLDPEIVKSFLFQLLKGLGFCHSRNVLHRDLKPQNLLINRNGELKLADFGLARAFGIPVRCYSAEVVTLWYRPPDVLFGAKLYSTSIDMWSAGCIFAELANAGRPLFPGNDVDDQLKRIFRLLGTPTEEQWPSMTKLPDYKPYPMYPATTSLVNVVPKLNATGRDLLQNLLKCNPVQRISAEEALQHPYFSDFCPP
# Chain of UniProt P45983 (whole entry, looked up): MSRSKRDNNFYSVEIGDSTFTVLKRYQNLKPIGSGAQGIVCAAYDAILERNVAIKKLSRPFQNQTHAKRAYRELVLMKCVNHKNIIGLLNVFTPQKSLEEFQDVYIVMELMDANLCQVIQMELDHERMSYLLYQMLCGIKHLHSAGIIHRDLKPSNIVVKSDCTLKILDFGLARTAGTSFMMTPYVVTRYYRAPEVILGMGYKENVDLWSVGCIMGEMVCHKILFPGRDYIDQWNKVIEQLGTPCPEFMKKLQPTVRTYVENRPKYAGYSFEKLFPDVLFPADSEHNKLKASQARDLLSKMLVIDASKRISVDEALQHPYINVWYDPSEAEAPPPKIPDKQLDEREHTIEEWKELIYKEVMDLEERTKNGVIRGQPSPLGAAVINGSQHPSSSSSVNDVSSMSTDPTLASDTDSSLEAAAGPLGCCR
# Chain of UniProt Q9NWZ3 (whole entry, looked up): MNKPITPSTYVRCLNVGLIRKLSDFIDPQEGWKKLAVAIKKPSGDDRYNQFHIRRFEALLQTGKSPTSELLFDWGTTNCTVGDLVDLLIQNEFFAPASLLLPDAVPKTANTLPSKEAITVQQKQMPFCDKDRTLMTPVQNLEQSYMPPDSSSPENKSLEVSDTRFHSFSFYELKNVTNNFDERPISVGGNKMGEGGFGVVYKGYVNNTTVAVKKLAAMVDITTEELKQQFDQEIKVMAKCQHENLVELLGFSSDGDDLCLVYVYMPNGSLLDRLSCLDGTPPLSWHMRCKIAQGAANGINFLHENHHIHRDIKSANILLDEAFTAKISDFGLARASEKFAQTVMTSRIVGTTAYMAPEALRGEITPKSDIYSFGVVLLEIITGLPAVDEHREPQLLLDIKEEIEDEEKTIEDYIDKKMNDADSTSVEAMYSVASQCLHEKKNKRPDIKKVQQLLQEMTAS
# Chain of UniProt Q9NRH2 (whole entry, looked up): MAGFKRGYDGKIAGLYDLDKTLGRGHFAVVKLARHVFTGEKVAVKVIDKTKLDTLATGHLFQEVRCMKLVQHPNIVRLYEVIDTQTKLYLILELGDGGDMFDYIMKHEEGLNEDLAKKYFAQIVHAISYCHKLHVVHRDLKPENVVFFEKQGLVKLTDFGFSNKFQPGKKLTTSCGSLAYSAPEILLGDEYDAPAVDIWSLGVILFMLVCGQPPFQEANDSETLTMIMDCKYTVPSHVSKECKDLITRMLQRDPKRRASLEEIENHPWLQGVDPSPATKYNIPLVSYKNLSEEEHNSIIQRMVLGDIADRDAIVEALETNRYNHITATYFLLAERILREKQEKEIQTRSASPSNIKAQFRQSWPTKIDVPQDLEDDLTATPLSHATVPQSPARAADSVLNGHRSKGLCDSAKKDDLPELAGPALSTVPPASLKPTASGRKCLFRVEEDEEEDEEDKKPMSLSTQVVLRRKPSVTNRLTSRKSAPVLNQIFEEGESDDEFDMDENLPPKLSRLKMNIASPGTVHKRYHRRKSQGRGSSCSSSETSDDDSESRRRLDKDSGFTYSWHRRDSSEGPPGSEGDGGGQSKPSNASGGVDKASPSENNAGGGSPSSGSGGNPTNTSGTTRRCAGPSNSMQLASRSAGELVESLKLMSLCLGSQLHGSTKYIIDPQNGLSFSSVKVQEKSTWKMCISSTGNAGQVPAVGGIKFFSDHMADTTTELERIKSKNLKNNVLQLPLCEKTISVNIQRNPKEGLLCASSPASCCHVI
# Chain of UniProt Q16816 (whole entry, looked up): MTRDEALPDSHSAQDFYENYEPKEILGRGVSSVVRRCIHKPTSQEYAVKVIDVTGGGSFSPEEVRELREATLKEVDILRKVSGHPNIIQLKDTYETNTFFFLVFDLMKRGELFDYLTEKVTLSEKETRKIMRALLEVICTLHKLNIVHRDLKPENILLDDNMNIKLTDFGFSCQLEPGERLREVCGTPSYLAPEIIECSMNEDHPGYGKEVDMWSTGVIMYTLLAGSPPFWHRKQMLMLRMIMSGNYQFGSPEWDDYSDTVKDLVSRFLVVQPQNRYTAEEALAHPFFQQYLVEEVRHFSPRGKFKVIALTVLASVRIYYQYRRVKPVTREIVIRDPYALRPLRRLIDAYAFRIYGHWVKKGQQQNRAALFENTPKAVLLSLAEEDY
# Chain of UniProt Q86YV6 (whole entry, looked up): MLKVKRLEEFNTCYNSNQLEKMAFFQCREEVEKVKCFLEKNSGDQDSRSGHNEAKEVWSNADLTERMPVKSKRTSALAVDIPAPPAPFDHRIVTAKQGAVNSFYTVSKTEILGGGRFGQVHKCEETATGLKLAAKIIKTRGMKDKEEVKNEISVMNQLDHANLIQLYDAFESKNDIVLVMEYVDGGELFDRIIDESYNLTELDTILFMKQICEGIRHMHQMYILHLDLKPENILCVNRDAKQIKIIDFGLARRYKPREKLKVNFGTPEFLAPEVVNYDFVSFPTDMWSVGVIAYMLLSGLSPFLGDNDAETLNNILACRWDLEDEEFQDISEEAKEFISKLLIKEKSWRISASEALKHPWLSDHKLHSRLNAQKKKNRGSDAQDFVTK

# Set 1 — cell line: U-87 MG; concentration: concentration not given; reference: DMSO
# SMILES: CCN1/C(=C/C=C2\CCCC(/C=C/C3=[N+](CC)c4ccccc4C3(C)C)=C2NCCCCCCCCN2CCC(Nc3nc4ccccc4n3Cc3ccc(F)cc3)CC2)C(C)(C)c2ccccc21
assay,log2 fold change
measured: ZSWIM6 mRNA,0.836
measured: ICOSLG mRNA,2.2
measured: NECTIN1 mRNA,-0.989
measured: DKK1 mRNA,-1.39
measured: RRM2 mRNA,-1.93
measured: PKP3 mRNA,-1.83
measured: TMEM74 mRNA,-1.06
measured: SKP2 mRNA,-1.96
measured: MIA2 mRNA,1.05
measured: SYF2 mRNA,0.932
measured: TMEM14A mRNA,-1.64
measured: NDC80 mRNA,-1.87
measured: ATP6V1G1 mRNA,0.839
measured: DNAH17 mRNA,4.98
measured: CLIC3 mRNA,-3.48
measured: PRPF3 mRNA,1.46

# Set 2 — observed: kinase activity
# Compound: CN(C1COC1)C(C)(C)/C=C(\C#N)C(=O)N1CCC[C@H]1Cn1nc(-c2ccc(Oc3ccccc3)cc2F)c2c(N)ncnc21
target,conditions,inhibition [%]
"MAPK8 (Homo sapiens, UniProt P45983)",0.1 µM,1
"SIK2 (Homo sapiens, UniProt Q9H0K1)",0.1 µM,7
"PLK3 (Homo sapiens, UniProt Q9H4B4)",0.1 µM,1
"TAOK2 (Homo sapiens, UniProt Q9UL54)",0.1 µM,1
"PRKX (Homo sapiens, UniProt P51817)",1 µM,2
"GRK6 (Homo sapiens, UniProt P43250)",1 µM,-2
"HIPK4 (Homo sapiens, UniProt Q8NE63)",0.1 µM,3
"PI4KB (Homo sapiens, UniProt Q9UBF8)",1 µM,-5
"MKNK2 (Homo sapiens, UniProt Q9HBH9)",1 µM,9
"Cyclin-dependent kinase 2, with cyclin E (CDK2, Homo sapiens, UniProt P24941)",0.1 µM,-3
"FRK (Homo sapiens, UniProt P42685)",1 µM,4
"CSK (Homo sapiens, UniProt P41240)",0.1 µM,9
"STK38L (Homo sapiens, UniProt Q9Y2H1)",1 µM,-4
"Tyrosine-protein kinase Lyn, isoform B (LYN, Homo sapiens, UniProt P07948)",0.1 µM,2
"FLT4 (Homo sapiens, UniProt P35916)",0.1 µM,3
"STK25 (Homo sapiens, UniProt O00506)",1 µM,11
"PKN2 (Homo sapiens, UniProt Q16513)",0.1 µM,9

# Set 3 — method: NanoBRET; concentration: 1 µM
# SMILES: COc1cc(-c2nc3ccc(C(=O)NCCCN(C)C)cc3n2C2CCC2)cc(OC)c1OC
target,target occupancy
"MYLK4 (Homo sapiens, UniProt Q86YV6)",-6.37%
"MAPK10 (Homo sapiens, UniProt P53779)",2.7%
"SNRK (Homo sapiens, UniProt Q9NRH2)",-1.41%
"CDK14 (Homo sapiens, UniProt O94921)",-3.07%
"IRAK4 (Homo sapiens, UniProt Q9NWZ3)",-0.29%
"PHKG1 (Homo sapiens, UniProt Q16816)",-9.63%
"FER (Homo sapiens, UniProt P16591)",1.12%
"CLK4 (Homo sapiens, UniProt Q9HAZ1)",-7.61%
"MAP3K21 (Homo sapiens, UniProt Q5TCX8)",6.89%
"Cyclin-dependent kinase 5, with CDK5R1 (CDK5, Homo sapiens, UniProt Q00535)",0.02%
"MARK4 (Homo sapiens, UniProt Q96L34)",-5.16%
"MAP3K20 (Homo sapiens, UniProt Q9NYL2)",0.04%

# Set 4 — observed: thermal unfolding; method: differential scanning fluorimetry; concentration: 5.5 µM; reading: higher = more unfolded
# Compound: C[C@@H]1CN(c2ccc(-c3cc(C(=O)NCCOCCOCCOCCOCCNC(=O)Cn4cc(-c5[nH]cc(C(=O)N[C@@H](CC(N)=O)c6ccc(F)c(Cl)c6)c5-c5ccc(Cl)cc5F)cn4)ccc3F)cc2NC(=O)c2c[nH]c(=O)cc2C(F)(F)F)C[C@H](C)N1C
# DCAF1: DDB1- and CUL4-associated factor 1 (DCAF1, Homo sapiens, UniProt Q9Y4B6)
# Chain of UniProt Q9Y4B6 (whole entry, looked up): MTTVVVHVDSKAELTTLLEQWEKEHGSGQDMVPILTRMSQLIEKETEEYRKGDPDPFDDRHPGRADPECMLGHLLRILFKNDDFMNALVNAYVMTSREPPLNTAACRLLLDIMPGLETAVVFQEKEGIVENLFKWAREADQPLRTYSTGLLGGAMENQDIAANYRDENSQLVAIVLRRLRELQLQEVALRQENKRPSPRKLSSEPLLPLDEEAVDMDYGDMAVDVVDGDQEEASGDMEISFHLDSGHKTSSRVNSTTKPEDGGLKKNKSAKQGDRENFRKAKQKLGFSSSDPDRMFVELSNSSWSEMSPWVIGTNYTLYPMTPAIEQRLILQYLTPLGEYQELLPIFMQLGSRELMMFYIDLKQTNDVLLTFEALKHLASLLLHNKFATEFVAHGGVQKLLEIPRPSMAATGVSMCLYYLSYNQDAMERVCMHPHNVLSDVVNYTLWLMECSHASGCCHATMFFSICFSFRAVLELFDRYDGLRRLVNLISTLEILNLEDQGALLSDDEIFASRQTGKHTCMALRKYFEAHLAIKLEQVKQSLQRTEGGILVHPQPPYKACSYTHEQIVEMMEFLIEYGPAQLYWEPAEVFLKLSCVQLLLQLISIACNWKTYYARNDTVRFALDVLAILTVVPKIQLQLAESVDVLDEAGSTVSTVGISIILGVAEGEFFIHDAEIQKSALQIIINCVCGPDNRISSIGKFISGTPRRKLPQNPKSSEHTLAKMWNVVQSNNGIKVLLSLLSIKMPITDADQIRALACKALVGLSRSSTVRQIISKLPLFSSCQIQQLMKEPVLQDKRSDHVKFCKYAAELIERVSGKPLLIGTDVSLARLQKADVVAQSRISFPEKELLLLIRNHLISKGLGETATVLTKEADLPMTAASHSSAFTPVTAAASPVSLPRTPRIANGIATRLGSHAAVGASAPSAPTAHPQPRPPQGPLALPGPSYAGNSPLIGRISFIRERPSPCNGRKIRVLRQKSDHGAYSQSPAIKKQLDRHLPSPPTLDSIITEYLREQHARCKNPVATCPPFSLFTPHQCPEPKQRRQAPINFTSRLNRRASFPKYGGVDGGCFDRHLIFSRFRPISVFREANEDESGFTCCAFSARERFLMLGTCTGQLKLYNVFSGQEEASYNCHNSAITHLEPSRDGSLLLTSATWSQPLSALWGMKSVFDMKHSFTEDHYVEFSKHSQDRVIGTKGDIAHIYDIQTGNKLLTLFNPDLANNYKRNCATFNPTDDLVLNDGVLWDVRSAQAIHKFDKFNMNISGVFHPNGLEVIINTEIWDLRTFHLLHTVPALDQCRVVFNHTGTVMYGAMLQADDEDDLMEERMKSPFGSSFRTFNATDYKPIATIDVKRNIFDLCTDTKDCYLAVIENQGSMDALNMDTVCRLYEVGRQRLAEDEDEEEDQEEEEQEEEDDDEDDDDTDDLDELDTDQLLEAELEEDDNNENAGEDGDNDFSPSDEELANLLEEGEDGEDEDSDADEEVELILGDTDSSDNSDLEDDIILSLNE
# WDR5: WD repeat-containing protein 5 (WDR5, Homo sapiens, UniProt P61964)
target,conditions,SYPRO Orange fluorescence [a.u.]
DCAF1,55.21 °C,19900
WDR5,81.61 °C,28600
WDR5,52.81 °C,14400
WDR5,31 °C,15000
DCAF1,31.2 °C,8280
WDR5,94.21 °C,38900
WDR5,76.61 °C,14000
WDR5,62.21 °C,9170
WDR5,35.4 °C,14300
DCAF1,82.61 °C,42000
WDR5,86.61 °C,42400

# A few entries again (set 3):
target,target occupancy
"SNRK (Homo sapiens, UniProt Q9NRH2)",-1.41%
"CDK14 (Homo sapiens, UniProt O94921)",-3.07%
"IRAK4 (Homo sapiens, UniProt Q9NWZ3)",-0.29%
"PHKG1 (Homo sapiens, UniProt Q16816)",-9.63%
"FER (Homo sapiens, UniProt P16591)",1.12%
"CLK4 (Homo sapiens, UniProt Q9HAZ1)",-7.61%
"MAP3K21 (Homo sapiens, UniProt Q5TCX8)",6.89%
"Cyclin-dependent kinase 5, with CDK5R1 (CDK5, Homo sapiens, UniProt Q00535)",0.02%
"MARK4 (Homo sapiens, UniProt Q96L34)",-5.16%
